Experimental data from different studies.
Numbers after ± are the reported error. No end group written: not given here.
B1: rsd Y34F (Escherichia coli, UniProt P0AFX4); chain MLNQLDNLTERVRGSNKLVDRWLHVRKHLLVAYFNLVGIKPGKESYMRLNEKALDDFCQSLVDYLSAGHFSIYERILHKLEGNGQLARAAKIWPQLEANTQQIMDYYDSSLETAIDHDNYLEFQQVLSDIGEALEARFVLEDKLILLVLDAARVKHPA
B2: RGS1 (Arabidopsis thaliana, UniProt Q8H1F2); chain MASGCALHGGCPSDYVAVAISVICFFVLLSRSVLPCLIHKAPRTNSSSFWIPVIQVISSFNLLFSIMMSVNLLRFRTKHWWRYCYLWAVWIEGPLGFGLLMSCRITQAFQLYFIFVKKRLPPVKSYIFLPLVLLPWIFGAAIIHATKPLNDKCHMGLQWTFPVAGLHALYVLALIAFTRAVRHVEFRFDELRDLWKGILVSATSIVIWVTAFVLNEIHEEISWLQVASRFVLLVTGGILVVVFFSISSNQPLLSQISLKKRQNFEFQRMGQALGIPDSGLLFRKEEFRPVDPNEPLDKLLLNKRFRHSFMEFADSCYAGETLHFFEEVYEHGKIPEDDSIRRIYMARHIMEKFIVAGAEMELNLSHKTRQEILTTQDLTHTDLFKNALNEVMQLIKMNLVRDYWSSIYFIKFKEEESCHEAMHKEGYSFSSPRLSSVQGSDDPFYQEHMSKSSRCSSPG
UniProt Q05152, sequence (whole entry, unmodified, looked up): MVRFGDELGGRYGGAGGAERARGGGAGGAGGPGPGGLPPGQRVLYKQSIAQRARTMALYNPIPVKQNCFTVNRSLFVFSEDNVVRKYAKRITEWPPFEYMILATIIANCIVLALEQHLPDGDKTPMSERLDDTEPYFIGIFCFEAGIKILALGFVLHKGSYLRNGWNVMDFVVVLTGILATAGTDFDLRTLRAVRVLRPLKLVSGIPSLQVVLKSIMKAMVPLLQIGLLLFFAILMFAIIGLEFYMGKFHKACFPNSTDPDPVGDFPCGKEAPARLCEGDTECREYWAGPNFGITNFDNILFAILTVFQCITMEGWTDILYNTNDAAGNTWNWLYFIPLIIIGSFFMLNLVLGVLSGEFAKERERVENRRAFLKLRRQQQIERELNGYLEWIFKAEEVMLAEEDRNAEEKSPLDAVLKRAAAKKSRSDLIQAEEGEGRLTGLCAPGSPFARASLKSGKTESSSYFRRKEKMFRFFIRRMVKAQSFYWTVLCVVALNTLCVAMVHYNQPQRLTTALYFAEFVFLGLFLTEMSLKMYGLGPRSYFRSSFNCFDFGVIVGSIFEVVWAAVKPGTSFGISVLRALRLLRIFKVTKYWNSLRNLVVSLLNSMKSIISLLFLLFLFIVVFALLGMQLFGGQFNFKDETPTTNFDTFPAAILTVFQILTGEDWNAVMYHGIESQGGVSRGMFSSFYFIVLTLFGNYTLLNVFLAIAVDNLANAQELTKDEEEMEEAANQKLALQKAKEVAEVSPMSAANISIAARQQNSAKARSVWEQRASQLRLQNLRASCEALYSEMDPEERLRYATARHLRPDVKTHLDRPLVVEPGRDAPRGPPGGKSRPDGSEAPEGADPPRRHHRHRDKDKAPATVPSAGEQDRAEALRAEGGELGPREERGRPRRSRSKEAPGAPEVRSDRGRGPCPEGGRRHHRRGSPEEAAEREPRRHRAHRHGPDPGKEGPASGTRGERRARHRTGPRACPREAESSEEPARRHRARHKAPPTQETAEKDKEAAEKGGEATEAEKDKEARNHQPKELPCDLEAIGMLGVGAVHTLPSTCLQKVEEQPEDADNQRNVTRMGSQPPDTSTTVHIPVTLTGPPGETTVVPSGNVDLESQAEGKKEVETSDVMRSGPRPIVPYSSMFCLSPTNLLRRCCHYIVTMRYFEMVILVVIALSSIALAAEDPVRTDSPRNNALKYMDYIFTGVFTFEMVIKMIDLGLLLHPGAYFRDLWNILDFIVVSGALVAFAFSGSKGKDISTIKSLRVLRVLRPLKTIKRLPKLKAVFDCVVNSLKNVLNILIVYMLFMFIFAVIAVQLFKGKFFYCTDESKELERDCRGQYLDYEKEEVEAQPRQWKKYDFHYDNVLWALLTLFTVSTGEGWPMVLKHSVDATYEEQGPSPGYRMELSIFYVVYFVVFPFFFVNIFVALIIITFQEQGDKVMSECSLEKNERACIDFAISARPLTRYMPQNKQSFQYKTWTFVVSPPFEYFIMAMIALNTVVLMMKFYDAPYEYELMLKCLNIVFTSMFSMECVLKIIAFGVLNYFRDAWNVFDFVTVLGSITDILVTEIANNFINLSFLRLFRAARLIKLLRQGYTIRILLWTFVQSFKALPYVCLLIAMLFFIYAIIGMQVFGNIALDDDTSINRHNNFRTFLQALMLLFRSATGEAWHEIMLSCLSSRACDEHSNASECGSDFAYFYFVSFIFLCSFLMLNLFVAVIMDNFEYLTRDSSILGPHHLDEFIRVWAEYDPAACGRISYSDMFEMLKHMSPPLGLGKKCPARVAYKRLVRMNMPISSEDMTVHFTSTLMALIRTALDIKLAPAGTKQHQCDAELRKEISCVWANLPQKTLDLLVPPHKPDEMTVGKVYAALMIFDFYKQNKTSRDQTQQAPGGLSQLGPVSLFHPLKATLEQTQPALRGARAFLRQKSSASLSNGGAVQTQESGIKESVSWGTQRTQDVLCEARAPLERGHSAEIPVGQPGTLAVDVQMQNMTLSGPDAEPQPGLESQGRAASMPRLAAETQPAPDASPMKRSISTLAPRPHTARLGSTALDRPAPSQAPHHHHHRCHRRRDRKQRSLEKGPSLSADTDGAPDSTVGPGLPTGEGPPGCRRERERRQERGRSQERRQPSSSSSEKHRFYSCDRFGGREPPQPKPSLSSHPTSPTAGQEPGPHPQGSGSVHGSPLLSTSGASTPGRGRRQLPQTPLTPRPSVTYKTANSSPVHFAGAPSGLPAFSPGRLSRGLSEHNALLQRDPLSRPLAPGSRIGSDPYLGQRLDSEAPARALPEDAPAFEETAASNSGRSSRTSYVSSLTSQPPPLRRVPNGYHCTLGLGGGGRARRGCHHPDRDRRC
UniProt Q02724, sequence (whole entry, looked up): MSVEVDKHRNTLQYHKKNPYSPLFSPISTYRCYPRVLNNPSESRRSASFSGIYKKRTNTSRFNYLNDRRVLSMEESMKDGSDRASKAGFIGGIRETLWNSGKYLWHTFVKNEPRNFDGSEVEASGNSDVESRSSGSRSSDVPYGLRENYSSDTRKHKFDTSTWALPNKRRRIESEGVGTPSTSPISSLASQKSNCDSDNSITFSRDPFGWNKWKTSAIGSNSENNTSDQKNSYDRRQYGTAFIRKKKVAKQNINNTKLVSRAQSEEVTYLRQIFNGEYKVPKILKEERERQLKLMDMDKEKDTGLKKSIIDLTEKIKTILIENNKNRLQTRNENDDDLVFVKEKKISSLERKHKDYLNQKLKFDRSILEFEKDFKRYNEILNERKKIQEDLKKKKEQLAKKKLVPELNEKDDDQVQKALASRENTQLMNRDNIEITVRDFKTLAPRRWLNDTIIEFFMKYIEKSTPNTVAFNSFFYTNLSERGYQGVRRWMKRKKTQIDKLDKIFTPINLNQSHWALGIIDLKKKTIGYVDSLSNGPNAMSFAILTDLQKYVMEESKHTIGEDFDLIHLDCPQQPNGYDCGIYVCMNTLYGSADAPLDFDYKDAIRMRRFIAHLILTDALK
UniProt Q9SQI2, sequence (whole entry, looked up): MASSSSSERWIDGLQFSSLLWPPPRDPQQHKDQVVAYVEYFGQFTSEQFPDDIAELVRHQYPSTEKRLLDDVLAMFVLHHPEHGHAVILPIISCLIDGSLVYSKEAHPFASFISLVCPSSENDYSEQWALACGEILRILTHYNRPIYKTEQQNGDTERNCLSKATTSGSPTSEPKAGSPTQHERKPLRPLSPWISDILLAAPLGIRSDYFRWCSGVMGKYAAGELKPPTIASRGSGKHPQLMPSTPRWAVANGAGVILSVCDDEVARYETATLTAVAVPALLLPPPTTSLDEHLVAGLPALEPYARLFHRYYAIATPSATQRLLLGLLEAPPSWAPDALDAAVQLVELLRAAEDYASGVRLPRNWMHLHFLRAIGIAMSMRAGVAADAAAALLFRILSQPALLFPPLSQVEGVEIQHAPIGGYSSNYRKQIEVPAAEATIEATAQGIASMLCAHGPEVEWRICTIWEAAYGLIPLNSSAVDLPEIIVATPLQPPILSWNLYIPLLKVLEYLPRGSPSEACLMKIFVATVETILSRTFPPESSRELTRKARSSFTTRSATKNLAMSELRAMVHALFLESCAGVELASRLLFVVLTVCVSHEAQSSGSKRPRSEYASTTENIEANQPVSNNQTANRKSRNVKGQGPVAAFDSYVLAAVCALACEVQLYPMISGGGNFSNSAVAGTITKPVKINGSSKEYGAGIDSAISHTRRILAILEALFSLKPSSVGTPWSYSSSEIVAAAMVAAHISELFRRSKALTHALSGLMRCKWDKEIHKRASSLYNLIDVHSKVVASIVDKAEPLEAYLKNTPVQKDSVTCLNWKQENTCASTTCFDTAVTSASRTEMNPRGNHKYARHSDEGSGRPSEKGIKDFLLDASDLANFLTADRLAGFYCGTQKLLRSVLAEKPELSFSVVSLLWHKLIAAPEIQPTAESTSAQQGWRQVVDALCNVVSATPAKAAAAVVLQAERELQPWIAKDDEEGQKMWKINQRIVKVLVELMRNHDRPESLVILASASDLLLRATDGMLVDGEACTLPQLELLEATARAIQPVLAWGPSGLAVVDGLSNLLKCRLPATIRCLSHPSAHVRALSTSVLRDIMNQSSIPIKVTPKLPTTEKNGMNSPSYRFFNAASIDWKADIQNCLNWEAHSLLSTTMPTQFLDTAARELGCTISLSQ
UniProt Q60772, sequence (whole entry, looked up): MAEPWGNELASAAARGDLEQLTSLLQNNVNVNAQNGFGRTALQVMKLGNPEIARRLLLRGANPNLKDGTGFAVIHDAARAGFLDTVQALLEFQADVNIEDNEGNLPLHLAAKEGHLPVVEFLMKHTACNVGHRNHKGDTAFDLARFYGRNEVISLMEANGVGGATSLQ
UniProt Q9C9W9, sequence (whole entry, looked up): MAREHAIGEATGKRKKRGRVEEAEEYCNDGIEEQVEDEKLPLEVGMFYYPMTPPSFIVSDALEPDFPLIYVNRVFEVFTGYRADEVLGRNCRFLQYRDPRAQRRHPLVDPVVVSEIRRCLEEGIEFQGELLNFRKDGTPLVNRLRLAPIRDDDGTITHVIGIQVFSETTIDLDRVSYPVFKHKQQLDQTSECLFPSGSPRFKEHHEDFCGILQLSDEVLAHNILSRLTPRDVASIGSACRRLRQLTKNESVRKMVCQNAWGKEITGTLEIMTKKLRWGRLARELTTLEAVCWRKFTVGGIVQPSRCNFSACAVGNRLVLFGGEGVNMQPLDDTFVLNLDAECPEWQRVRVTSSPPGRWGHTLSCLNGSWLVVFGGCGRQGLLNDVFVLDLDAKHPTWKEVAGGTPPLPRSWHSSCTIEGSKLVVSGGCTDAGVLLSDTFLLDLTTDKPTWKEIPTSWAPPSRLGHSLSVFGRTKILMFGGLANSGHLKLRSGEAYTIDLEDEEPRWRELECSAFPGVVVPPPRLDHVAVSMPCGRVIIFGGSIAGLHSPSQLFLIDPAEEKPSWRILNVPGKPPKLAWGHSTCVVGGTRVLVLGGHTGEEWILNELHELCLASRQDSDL

COX6A2 (Bos taurus, UniProt P07471) — urea midpoint for subunit dissociation (cytochrome c oxidase eight-subunit core (Bos taurus, UniProt P00396); anion exchange chromatography, RP-HPLC, SDS-PAGE; 10 min, pH 7.2, room temperature, apparent, single transition fit): 3.8 M
B1 (rsd Y34F) — remaining transcription (rpoD (Escherichia coli, UniProt P00579); single-round in vitro transcription, inhibitor; relative to: absence of Rsd, higher = less inhibition): 20%
ULP1 (Saccharomyces cerevisiae, UniProt Q02724) — apparent KM (SUMO/eGFP His6-SUMO fused eGFP (Saccharomyces cerevisiae); steady-state kinetics; pH 7.5, 30 °C, with: DTT 1 mM): 3340 µM
Tigit fragment (Mus musculus) — kon (Pvr/IgG1 Fc Fc fusion, extracellular domain (Mus musculus); SPR; avidity, bivalent analyte model): 4660 M⁻¹ s⁻¹
CACNA1B fragment (Oryctolagus cuniculus) — current inhibition (CACNA1B 56-2339 (Oryctolagus cuniculus, UniProt Q05152); IBa; Xenopus oocytes): 50 % inhibition
B2 (RGS1) — GAP activity per molecule (GPA1 (Arabidopsis thaliana, UniProt P18064); single turnover GTPase assay; nanodiscs): 0.00024 min⁻¹ pmol⁻¹
UGT1A9 (Homo sapiens, UniProt O60656) — Km (CCCCOC(=O)c1ccc(O)cc1; steady-state kinetics; pH 7.4, 37 °C): 84.1 µM
GCG GLP-1() — cAMP accumulation EC50 (GLP1R (Homo sapiens, UniProt P43220); cAMP, agonist; CHO-K1): 1120 nM
cytochrome c5 (Shewanella oneidensis) — peroxide turnover rate k1 (CcP/MBP, two covalent hemes (Shewanella oneidensis); steady-state kinetics; oxidized, MBP-fused, with: electron donor 4 µM): 1.6 s⁻¹
FKF1 (UniProt Q9C9W9) — light induction of luciferase (GI (UniProt Q9SQI2); reporter gene; HEK293T; with: FZ 20 µM; relative to: dark, higher = stronger induction): 40 fold
REC102 (Saccharomyces cerevisiae, UniProt Q02721) — molecule per partner (SPO11 (Saccharomyces cerevisiae, UniProt P23179); SEC-MALS): 1
GYWKLLITIHDRKEFAKF (ITGB3 715-730 (Homo sapiens)) — IC50 (Myom1 fragment (Mus musculus); competition with labelled skelemin, competitor, solid-phase competition; peptide; 20 min, 22 °C): 500 ± 140 nM
Cdk4 (Mus musculus, UniProt P30285) — half-life (Ink4c (Mus musculus, UniProt Q60772); pulse-chase; 293T; molecule co-expressed; relative to: partner alone, higher = more stable partner): > 3 fold
SGRGK(Ac)GGKGL (histone H4 residues 1-10; acetylated K5) — ΔH (ATAD2 bromodomain 981-1108 C1101A, Cys1057-Cys1079 disulfide (Homo sapiens, UniProt Q6PL18); ITC; peptide): -3.57 kcal/mol

Repeated from above:
FKF1 (UniProt Q9C9W9) — light induction of luciferase (GI (UniProt Q9SQI2); reporter gene; HEK293T; with: FZ 20 µM; relative to: dark, higher = stronger induction): 40 fold
